Measurements gathered from unrelated publications.
Protocols differ between the studies behind these lines.
MET: Hepatocyte growth factor receptor (MET, Homo sapiens, UniProt P08581)
MET M1250T: Hepatocyte growth factor receptor (MET, Homo sapiens, UniProt P08581, M1250T)
MET Y1235D: Hepatocyte growth factor receptor (MET, Homo sapiens, UniProt P08581, Y1235D)

| SMILES | target | assay | setting | how to read | remaining binding [%] |
| --- | --- | --- | --- | --- | --- |
| CNC(=O)C1CCN(c2cc(C)c(F)cc2NC(=O)c2ccc(-c3cc(O)ccc3C)c(C)c2)CC1 | MET | binding, competition with immobilised ligand | 1 µM |  | 100 |
| COc1cc(Nc2nccc(-c3cnn4nc(OC)ccc34)n2)cc(C(F)(F)F)c1 | MET M1250T | binding | 1 µM |  | 100 |
| Cc1cnc2nc1Nc1cccc(c1)COC/C=C/COCc1cc(ccc1OCCN1CCOCC1)N2 | MET M1250T | binding | 0.1 µM |  | 95 |
| CCN1CCN(Cc2ccc(C(=O)Nc3ccc(C)c(NCc4cnc5[nH]ccc5c4OC)c3)cc2C(F)(F)F)CC1 | MET | binding, competition with immobilised ligand | 1 µM |  | 82 |
| COc1c(Cl)cccc1Nc1c(-c2ccncc2C#C[C@@]2(C)CCCN2C(=O)/C=C/CN(C)C)[nH]c2c1C(=O)NCC2 | MET | cell-free assay, competition with immobilised ligand | 3 µM |  | 92 |
| C=CC(=O)N1CCCC(n2c(=O)c3ncccc3n(Cc3ccc(Oc4ccccc4)cc3)c2=O)C1 (stereo not shown) | MET | cell-free assay, competition with immobilised ligand | 1 µM |  | 90 |
| CC(=O)N1c2ccc(-c3ccc(CNC(=O)c4cn5cc(-c6cnc(N)nc6)nc(N6CCOCC6)c5n4)cc3)cc2CC[C@@H]1C | MET | KINOMEscan | 10 µM |  | 92 |
| Cc1ccc(-c2c(/C=C(\C#N)C(=O)NC(C)C)n(CCCO)c3ncnc(N)c23)cc1 | MET | cell-free assay, competition with immobilised ligand | 1 µM |  | 100 |
| CN1CCN(Cc2ccc(NC(=O)c3cccc(C#Cc4cnc(N)c5ncccc45)c3)cc2C(F)(F)F)CC1 | MET | cell-free assay, competition with immobilised ligand | 50 nM |  | 86 |
| CC(C)=CC1OC(C)(C)C2C=C3C(=O)C(Cl)=CC(O)C3C3C(O)C4OC4C(=O)C132 (stereo not shown) | MET | cell-free assay, competition with immobilised ligand | 10 µM |  | 89 |
| Nc1ncc2c(n1)-c1c([nH]c3ccc(C4=CCOCC4)cc13)CCC2 | MET Y1235D | binding, competition with immobilised ligand | 1 µM |  | 100 |
| CNC1C[S+]2CC[S+]3CC[S+](C1)[Ru-4]321([N]=C=S)[n]2c3ccc(OC)cc3c3c4c(c5cc(F)c[n+]1c5c32)C(=O)NC4=O (stereo not shown) | MET M1250T | KinomeScan | 0.1 µM | baseline: untreated | 82 |
| C=CC(=O)N1CCc2ccc(-n3c(=O)ccc4cnc5ccc(-c6cnn(C)c6)cc5c43)cc21 | MET Y1235D | KINOMEscan | 1 µM | baseline: DMSO control | 100 |

Some of these lines once more:
| SMILES | target | assay | setting | how to read | remaining binding [%] |
| --- | --- | --- | --- | --- | --- |
| CNC1C[S+]2CC[S+]3CC[S+](C1)[Ru-4]321([N]=C=S)[n]2c3ccc(OC)cc3c3c4c(c5cc(F)c[n+]1c5c32)C(=O)NC4=O (stereo not shown) | MET M1250T | KinomeScan | 0.1 µM | baseline: untreated | 82 |
